Measurements collected from several papers.
Every numbered part comes from another study and shows a few of its results, in no order. “And” joins repeats or separate records; there may be more than shown.

Sample 1
Structure (SMILES): C[C@@H]1CN(c2ccc(-c3cc(C(=O)NCCOCCOCCOCCOCCNC(=O)/C=C/c4[nH]cc(C(=O)N[C@@H](CC(N)=O)c5ccc(F)c(Cl)c5)c4-c4ccc(Cl)cc4F)ccc3F)cc2NC(=O)c2c[nH]c(=O)cc2C(F)(F)F)C[C@H](C)N1C
Observed: thermal unfolding
Method: differential scanning fluorimetry
Concentration: 5.5 µM
Reading: higher = more unfolded
Quantity: SYPRO Orange fluorescence
WDR5: WD repeat-containing protein 5 (WDR5, Homo sapiens, UniProt P61964)
DCAF1: DDB1- and CUL4-associated factor 1 (DCAF1, Homo sapiens, UniProt Q9Y4B6)
UniProt Q9Y4B6, sequence (whole entry, looked up): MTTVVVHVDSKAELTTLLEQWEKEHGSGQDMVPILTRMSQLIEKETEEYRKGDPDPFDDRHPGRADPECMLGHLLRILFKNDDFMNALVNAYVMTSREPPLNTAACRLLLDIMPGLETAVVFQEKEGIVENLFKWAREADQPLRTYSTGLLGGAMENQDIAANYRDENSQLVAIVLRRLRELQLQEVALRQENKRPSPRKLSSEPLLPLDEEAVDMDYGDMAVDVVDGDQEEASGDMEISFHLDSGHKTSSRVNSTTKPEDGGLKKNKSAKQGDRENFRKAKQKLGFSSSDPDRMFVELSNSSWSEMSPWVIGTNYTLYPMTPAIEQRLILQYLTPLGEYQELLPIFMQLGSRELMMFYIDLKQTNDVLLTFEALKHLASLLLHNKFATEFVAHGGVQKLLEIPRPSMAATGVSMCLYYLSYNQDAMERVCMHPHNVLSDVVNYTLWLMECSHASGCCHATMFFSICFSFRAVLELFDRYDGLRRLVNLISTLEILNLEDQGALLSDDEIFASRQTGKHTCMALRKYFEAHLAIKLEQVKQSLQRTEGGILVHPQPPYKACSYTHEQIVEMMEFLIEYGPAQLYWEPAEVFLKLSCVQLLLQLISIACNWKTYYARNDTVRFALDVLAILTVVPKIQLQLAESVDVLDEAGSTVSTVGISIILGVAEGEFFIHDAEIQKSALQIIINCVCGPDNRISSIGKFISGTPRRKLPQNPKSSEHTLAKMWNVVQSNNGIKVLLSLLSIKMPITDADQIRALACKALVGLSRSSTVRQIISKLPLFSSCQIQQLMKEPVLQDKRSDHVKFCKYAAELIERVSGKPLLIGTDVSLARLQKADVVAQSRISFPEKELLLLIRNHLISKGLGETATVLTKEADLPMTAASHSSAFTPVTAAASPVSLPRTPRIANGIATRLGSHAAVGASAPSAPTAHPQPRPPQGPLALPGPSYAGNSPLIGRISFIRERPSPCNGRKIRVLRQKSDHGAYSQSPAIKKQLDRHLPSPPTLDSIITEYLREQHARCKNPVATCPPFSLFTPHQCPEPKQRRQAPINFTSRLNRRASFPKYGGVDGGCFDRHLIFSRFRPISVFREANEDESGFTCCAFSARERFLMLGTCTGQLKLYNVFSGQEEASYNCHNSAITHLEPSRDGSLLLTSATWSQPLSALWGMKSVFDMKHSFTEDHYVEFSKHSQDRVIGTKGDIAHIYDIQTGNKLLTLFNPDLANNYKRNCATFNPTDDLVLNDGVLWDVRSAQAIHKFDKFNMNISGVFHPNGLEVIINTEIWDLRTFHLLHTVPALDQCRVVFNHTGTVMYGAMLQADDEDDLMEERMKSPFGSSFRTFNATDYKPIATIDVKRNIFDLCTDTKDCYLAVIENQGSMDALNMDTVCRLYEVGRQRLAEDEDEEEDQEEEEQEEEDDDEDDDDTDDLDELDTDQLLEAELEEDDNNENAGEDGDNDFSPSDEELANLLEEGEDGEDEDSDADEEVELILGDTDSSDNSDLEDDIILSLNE
WDR5; 87.21 °C: 53600 a.u.
WDR5; 52.61 °C: 16800 a.u.
DCAF1; 65.21 °C: 59000 a.u.
DCAF1; 86.81 °C: 38100 a.u.
WDR5; 75.01 °C: 25800 a.u.
WDR5; 75.21 °C: 26300 a.u.
WDR5; 54.61 °C: 16800 a.u.
WDR5; 51 °C: 16700 a.u.

Sample 2
Structure (SMILES): Cc1ccc(O)c(C)c1-c1cnc2[nH]c(-c3cnc(N4CCC5(CC4)CC(N4CCN(c6ccc(N[C@H]7CCC(=O)NC7=O)cc6F)CC4)CO5)nc3)cc2c1C#N (single isomer, unassigned)
Quantity: inhibition
PKMYT1: Membrane-associated tyrosine- and threonine-specific cdc2-inhibitory kinase (PKMYT1, Homo sapiens, UniProt Q99640)
UniProt Q99640, sequence (whole entry, looked up): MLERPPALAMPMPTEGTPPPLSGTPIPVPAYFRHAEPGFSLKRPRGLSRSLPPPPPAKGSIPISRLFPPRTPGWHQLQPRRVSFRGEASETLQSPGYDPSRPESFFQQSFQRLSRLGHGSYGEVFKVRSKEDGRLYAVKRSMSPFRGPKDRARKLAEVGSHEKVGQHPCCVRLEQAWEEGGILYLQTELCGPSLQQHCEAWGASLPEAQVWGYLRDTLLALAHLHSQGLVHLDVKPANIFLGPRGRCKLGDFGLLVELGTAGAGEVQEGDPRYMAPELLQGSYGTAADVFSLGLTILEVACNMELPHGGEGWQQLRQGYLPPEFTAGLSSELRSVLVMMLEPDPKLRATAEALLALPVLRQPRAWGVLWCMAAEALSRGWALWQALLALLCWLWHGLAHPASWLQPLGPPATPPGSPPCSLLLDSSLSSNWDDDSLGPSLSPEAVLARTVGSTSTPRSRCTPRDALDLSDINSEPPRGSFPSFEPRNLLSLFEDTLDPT
PKMYT1; enzyme activity, inhibitor; 13.72 nM: 81.3%
PKMYT1; binding, HTRF; 0.51 nM: 7.26% and 12.8%
NCI-H1568; cell proliferation; 3333.33 nM: 79.9% and 78.5%
NCI-H1568; cell growth; 123.5 nM: 8.92%
NCI-H1568; cell growth; 370.37 nM: 15.1%
automated immunoblotting, refers to: CDK1 phospho-Thr14; mouse, HCC1569 xenograft, tumour; dose not given, 144 h: 25.6% and 40.3% and 63.2% and 51.7% and 23.7% and 53.6%
NCI-H1568; cell proliferation; 13.72 nM: 4.58% and -0.28% and 4.72%
MKN-1; cell proliferation; 4.572 nM: -2.97% and 2.73% and -6.87%

Sample 3
Compound: CCN(CC)CC(=O)N1CCN(c2nc(NCc3nc4cc(Cl)c(Cl)cc4[nH]3)c3ncn(CC)c3n2)CC1
Observed: cell viability
Method: CellCounting-Lite
Temperature: 37 °C
Reading: higher = more viable cells
Quantity: luminescence signal
MDA-MB-231; 0.1221 nM: 406000 a.u. and 376000 a.u. and 353000 a.u.
MDA-MB-231; 0.007629 nM: 461000 a.u. and 460000 a.u. and 491000 a.u.
MDA-MB-468; 0.03052 nM: 108000 a.u. and 111000 a.u. and 124000 a.u.
MDA-MB-231; 500 nM: 7350 a.u. and 6940 a.u. and 7480 a.u.

Sample 4
Target: Sodium-dependent neutral amino acid transporter B(0)AT1 (SLC6A19, Homo sapiens, UniProt Q695T7)
UniProt Q695T7, sequence (whole entry, looked up): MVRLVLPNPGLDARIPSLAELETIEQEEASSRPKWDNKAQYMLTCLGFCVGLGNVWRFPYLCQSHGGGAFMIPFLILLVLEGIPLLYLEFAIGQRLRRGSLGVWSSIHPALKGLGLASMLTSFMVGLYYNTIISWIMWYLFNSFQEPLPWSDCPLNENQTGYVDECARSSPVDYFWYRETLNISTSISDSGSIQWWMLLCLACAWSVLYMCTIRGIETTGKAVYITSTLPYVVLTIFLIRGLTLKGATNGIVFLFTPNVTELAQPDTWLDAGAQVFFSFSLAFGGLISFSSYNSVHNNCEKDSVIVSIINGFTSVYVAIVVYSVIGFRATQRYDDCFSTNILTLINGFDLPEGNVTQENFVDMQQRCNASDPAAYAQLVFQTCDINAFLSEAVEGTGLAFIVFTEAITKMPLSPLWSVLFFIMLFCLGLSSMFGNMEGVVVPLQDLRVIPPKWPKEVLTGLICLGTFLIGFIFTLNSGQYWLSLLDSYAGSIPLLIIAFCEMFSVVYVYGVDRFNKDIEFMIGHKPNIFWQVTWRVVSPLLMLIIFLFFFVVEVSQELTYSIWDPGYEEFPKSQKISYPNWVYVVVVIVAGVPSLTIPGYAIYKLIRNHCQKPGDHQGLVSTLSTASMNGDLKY
Action: inhibitor
Method: FLIPR membrane potential
Cell line: CHO-BC cells
Concentration: 0.01 µM
Setting: unit not given
Baseline: uninhibited cells
Quantity: remaining transport activity
CCNC(=O)COc1ccc(I)c(C)c1: 0.729
CCNC(=O)COc1ccc(Br)c(C)c1: 0.89
Cc1cc(NCC(=O)NC(C)C)cc(C)c1Cl: 1.04
CCCNC(=O)COc1ccc(I)c(C)c1: 0.829
Cc1cc(NCC(=O)NC(C)C)ccc1Br: 0.897

For quick reference, copied from above (sample 4):
CCCNC(=O)COc1ccc(I)c(C)c1: 0.829
Cc1cc(NCC(=O)NC(C)C)ccc1Br: 0.897
